Measured values collected from several papers.
A part holds a random share of what one study measured.
UniProt P52333, sequence (whole entry, looked up): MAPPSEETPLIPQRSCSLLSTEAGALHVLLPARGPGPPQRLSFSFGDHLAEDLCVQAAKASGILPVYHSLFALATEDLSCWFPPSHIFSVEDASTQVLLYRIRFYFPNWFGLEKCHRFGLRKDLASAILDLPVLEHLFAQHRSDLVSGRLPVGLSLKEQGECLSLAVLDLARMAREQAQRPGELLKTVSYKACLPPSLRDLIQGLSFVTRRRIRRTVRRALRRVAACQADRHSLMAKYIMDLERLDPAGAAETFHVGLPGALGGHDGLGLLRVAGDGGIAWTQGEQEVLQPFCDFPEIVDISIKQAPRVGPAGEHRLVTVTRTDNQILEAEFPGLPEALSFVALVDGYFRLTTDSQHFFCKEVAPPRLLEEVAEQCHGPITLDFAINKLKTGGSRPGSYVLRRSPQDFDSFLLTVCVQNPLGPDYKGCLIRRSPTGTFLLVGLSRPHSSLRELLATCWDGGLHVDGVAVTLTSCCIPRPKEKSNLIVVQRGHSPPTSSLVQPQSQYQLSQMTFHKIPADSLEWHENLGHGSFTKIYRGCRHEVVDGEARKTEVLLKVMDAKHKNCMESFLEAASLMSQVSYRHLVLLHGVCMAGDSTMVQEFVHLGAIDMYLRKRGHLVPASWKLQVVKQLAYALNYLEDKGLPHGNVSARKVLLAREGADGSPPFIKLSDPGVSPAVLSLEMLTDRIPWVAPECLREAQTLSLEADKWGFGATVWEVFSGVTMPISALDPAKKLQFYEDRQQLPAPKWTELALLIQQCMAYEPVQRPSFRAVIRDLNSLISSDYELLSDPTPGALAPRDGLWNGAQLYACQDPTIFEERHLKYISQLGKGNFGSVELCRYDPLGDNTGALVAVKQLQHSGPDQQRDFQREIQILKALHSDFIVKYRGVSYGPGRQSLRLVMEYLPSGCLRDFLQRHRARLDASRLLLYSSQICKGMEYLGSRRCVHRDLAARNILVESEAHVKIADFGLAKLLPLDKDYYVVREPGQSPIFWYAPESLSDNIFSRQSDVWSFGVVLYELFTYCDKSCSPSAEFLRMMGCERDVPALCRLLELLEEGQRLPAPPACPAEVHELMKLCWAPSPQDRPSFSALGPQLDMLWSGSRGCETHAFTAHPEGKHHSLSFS
UniProt P14616, sequence (whole entry, looked up): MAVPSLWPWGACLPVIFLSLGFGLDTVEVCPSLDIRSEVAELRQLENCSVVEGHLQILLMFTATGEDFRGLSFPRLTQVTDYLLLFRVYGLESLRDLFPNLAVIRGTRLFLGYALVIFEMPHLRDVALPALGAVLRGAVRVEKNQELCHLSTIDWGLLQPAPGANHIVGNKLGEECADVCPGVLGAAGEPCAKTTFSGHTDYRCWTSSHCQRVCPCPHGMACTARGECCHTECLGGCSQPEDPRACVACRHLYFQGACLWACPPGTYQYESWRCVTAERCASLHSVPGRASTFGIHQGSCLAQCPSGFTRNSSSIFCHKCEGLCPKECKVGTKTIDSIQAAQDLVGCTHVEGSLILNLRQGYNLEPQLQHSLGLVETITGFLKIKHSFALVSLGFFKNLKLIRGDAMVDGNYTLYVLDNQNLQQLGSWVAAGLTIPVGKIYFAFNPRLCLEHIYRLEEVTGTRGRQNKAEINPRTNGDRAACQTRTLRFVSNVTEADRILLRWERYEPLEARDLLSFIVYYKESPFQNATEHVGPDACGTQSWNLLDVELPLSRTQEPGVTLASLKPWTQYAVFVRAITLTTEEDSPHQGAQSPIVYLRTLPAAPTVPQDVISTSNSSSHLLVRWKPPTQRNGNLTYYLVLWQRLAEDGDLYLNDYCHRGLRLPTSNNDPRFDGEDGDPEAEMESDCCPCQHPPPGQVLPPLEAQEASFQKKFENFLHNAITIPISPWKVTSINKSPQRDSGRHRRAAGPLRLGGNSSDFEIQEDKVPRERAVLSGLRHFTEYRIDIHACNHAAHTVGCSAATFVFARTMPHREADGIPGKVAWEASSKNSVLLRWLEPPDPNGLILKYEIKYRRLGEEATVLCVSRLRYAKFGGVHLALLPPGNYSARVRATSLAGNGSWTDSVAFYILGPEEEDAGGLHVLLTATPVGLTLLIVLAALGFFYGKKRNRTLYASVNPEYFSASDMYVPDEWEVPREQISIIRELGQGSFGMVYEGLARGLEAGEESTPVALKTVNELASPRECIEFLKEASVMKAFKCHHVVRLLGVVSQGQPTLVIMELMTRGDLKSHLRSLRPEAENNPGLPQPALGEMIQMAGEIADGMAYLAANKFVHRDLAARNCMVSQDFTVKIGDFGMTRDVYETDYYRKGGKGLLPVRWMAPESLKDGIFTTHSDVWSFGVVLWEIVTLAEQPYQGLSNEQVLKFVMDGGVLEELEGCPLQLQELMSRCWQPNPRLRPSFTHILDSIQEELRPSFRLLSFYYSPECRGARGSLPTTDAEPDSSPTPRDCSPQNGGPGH
UniProt Q9UL54, sequence (whole entry, looked up): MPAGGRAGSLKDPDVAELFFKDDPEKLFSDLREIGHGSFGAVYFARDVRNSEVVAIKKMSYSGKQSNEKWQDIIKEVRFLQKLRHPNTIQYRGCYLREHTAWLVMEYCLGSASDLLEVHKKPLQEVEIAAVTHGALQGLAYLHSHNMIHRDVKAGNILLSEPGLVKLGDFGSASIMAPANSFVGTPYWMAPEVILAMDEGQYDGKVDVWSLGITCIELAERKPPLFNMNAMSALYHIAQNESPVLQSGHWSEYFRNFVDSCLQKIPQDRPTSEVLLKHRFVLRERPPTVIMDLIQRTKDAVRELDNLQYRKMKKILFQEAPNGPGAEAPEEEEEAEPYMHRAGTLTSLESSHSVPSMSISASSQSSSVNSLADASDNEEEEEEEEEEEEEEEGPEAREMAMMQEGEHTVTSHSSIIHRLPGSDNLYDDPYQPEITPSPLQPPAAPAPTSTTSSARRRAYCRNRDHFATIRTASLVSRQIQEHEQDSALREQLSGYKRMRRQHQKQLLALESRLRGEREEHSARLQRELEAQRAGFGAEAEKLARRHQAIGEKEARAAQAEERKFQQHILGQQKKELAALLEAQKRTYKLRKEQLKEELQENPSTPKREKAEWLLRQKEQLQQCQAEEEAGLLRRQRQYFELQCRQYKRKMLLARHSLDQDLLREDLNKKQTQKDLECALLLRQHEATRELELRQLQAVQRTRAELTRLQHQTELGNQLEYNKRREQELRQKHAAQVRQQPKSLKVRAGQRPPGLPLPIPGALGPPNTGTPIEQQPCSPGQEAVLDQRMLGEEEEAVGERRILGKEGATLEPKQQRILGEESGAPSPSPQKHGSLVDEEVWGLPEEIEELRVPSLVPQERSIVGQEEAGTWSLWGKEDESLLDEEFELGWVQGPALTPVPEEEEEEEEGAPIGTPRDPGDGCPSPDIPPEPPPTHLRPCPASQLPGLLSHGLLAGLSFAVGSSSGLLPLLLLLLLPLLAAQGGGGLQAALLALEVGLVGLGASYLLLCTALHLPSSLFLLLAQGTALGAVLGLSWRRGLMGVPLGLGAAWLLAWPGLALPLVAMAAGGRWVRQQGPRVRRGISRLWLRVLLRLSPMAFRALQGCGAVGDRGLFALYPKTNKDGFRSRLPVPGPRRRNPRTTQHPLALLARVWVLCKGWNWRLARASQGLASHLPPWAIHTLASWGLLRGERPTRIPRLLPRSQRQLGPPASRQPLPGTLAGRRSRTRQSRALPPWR
UniProt Q96RR4, sequence (whole entry, looked up): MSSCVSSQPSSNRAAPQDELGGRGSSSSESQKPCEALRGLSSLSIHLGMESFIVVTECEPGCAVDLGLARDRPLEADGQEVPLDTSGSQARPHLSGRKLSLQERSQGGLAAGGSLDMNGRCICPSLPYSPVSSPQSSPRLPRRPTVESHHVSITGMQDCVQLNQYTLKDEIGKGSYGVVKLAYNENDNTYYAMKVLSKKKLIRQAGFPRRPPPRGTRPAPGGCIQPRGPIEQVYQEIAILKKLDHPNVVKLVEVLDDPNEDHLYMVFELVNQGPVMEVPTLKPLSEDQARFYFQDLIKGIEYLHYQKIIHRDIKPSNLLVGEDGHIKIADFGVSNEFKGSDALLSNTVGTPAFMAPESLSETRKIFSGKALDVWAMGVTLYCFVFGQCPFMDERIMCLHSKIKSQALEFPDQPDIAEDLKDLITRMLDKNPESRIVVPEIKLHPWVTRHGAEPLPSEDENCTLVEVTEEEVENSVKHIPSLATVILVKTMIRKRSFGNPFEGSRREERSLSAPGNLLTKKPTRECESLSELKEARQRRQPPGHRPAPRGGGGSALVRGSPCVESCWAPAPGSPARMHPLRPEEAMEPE
UniProt P06239, sequence (whole entry, looked up): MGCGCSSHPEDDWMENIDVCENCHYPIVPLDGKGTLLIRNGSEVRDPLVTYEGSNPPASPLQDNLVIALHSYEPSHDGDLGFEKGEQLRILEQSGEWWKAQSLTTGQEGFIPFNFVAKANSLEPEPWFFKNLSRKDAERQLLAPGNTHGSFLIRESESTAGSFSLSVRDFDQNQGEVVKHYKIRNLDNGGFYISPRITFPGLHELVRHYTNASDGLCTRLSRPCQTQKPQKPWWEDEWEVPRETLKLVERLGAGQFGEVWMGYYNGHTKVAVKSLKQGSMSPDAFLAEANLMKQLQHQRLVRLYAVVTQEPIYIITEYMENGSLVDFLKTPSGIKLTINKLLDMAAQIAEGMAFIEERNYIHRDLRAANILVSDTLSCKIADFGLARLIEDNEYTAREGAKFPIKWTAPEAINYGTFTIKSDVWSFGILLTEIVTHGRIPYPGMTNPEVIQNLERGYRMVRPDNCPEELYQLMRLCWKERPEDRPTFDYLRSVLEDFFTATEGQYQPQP

Set 1 — SMILES: O=C1NC(=O)c2c1c1c3ccccc3[nH]c1n1cncc21; effect on: enzyme activity; mode: inhibitor; concentration: 0.5 µM; baseline: control
target	remaining activity [%]
EPHA3 (Homo sapiens, UniProt P29320)	105
TAOK2 (Homo sapiens, UniProt Q9UL54)	89.4
CSNK1G2 (Homo sapiens, UniProt P78368)	63.4
MERTK (Homo sapiens, UniProt Q12866)	53.9
JAK3 (Homo sapiens, UniProt P52333)	140
NEK1 (Homo sapiens, UniProt Q96PY6)	75.2
TEK (Homo sapiens, UniProt Q02763)	78.9
LCK (Homo sapiens, UniProt P06239)	87.1
MAPKAPK2 (Homo sapiens, UniProt P49137)	98.9
GRK7 (Homo sapiens, UniProt Q8WTQ7)	96.2
MAP3K5 (Homo sapiens, UniProt Q99683)	97.8
GSK3B (Homo sapiens, UniProt P49841)	30.8
ABL2 (Homo sapiens, UniProt P42684)	79.9
MST1R (Homo sapiens, UniProt Q04912)	102

Set 2 — effect on: cell-free assay; technique: competition with immobilised ligand; concentration: 1 µM
SMILES: CNC(=O)Nc1ccc2c(c1)[C@@]1(CC2)OC(=O)N(CC(=O)N(Cc2ccc(F)cc2)[C@@H](C)C(F)(F)F)C1=O
target	remaining binding [%]
CDK14 (Homo sapiens, UniProt O94921)	100
PKN2 (Homo sapiens, UniProt Q16513)	100
Aurora kinase B (AURKB, Homo sapiens, UniProt Q96GD4)	93
CAMK1 (Homo sapiens, UniProt Q14012)	100
EGFR (Homo sapiens, UniProt P00533, L858R/T790M)	83
CAMK2D (Homo sapiens, UniProt Q13557)	100
INSRR (Homo sapiens, UniProt P14616)	100
ROCK2 (Homo sapiens, UniProt O75116)	95
IKBKE (Homo sapiens, UniProt Q14164)	75
CAMK2B (Homo sapiens, UniProt Q13554)	100
ALK (Homo sapiens, UniProt Q9UM73, C1156Y)	100
WNK4 (Homo sapiens, UniProt Q96J92)	100
PRKG2 (Homo sapiens, UniProt Q13237)	85
IRAK3 (Homo sapiens, UniProt Q9Y616)	100
CSNK1E (Homo sapiens, UniProt P49674)	80
CAMKK2 (Homo sapiens, UniProt Q96RR4)	99
RET (Homo sapiens, UniProt P07949, M918T)	100
FLT3 (Homo sapiens, UniProt P36888, K663Q)	84
RIOK3 (Homo sapiens, UniProt O14730)	100
CDK2 (Homo sapiens, UniProt P24941)	100
FLT3 (Homo sapiens, UniProt P36888, D835Y)	96
Tyrosine-protein kinase JAK3, JH1 (JAK3, Homo sapiens, UniProt P52333)	91

Set 3 — technique: RNA Bind-n-Seq; form: RNA; matrix: in vitro; concentration: 100 nM; baseline: input RNA pool; direction: higher = stronger binding
Target: RING finger protein unkempt homolog, zinc fingers 1-6, SBP tag (UNK, Homo sapiens, UniProt Q9C0B0, residues 30-357)
UniProt Q9C0B0, sequence (30-357, looked up): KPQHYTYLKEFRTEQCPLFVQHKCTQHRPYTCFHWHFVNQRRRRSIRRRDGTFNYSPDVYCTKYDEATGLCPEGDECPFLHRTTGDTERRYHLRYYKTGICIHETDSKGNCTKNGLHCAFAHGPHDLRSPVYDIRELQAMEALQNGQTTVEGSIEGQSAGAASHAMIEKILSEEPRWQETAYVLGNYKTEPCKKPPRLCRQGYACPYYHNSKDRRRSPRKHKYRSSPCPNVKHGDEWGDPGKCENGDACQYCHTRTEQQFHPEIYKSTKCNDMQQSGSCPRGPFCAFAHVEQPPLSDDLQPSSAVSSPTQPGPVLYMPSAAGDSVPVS
Setting: RNA with constant flanks, vertebrate orthologous sites, ends assumed
Sequence	bound/input enrichment [ratio]
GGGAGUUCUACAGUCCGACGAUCACACUCACAUUGUGGCAAACAGUCAACAUGGAAGUAGACCGGCUCUGCUGAUUUGAAAUUUAGAUUUUUUUUUAAUUAUGUACUGGGGACAGGUUUUUGUCGCUUUACAUUGCUUCCUAGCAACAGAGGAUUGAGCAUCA	4.66
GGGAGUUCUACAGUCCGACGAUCUCAGUCUCUUCCUGUCCUGAGUUUUAUUAAGAAAUCCUUUUUUCUUUUUCUUCUUUUAGGGGAUAUAUAGUAAUAUUAGUGUAAAGAUUUUAAUUUGGGCAACUUUGACUCUUAAGAGAACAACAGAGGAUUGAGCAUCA	1.09
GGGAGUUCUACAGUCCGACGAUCAAUCAGUAGAAUUAGAUAAUACUAAAGUUACAGUUGAAAGGAUAUCCAAGUACAUCUUGGUAGUUACUAAAAGAAUUAGAGCUGUUAUUGCCUUGUAUUUAUAGCCCUUGUUUCAGGUUUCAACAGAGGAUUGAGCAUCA	0.476
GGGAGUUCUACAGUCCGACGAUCGAGCUAAAGGAGUCAGCAUCUUUAUUUUUGUAUCAGAGAUAAAGGUUAUUUUGAAAUUAUUAGGAUUUUUACACAACUCUGAAAUCUGUUGCUUUUGUAAACCAAUUGUUUGAUCUUCAGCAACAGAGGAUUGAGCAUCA	0.543
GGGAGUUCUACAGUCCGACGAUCGUUAGGUCAUGACCCUUACAGGCUAGGUCAUGAUGCCUACAGGUUAGGGCAAGACCCCUAUAGAUUAGGCCAUGAUCCCUACAGACUAACUCCUGAUCCCUAUAGGAUGUCACCUAGACCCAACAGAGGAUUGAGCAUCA	0.506
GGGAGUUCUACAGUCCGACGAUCAUUAGGUCAUGACCCUUAUAGGUUAGGUCAUGAUGCCUACCGGUUAGGACAGGACCCAUAUAGAUUAGGCCAUGAUCCCUAUAGACUAACUCCUGAUCCCUAUAGAAUGUCACCUAGACCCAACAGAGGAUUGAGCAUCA	0.883
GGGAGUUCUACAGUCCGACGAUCGUGUUUUGGUACAAAGUUGUGUACCAAUACUCAUCAUCUUUACAUUAUACCAACUAUCCCUAGAAAUAGGAGUUUAAUAUUUUUCAAAAUUUUACAUUGCUGUAUAUUCAAAAUUUUAAACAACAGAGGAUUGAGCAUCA	0.486
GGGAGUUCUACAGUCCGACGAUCCUCUAUGGGCCUCGCAGAGUUGAAAUAAUGGAAGAGGAAAGUGAAUAGUAAUCUUCAUUUCAGUAUUUAUGCUUAGAUGUGAAAAUAAAUGUUAUUUGUUGAUCAUUUCUAUAAUCCAGACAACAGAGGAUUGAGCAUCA	0.269

Other studies, line by line — technique: cross-linking MS
Molecule	partner	system	conditions	measurement	value
NDUFS7 (Homo sapiens, UniProt O75251)	NDUFA9 (Homo sapiens, UniProt Q16795)	cell fractions	together with: DSSO	cross-linked residues	K55 to K147
KRT18 (Homo sapiens, UniProt P05783)	KRT6C (Homo sapiens, UniProt P48668)	–	hits only	interaction screen	cross-linked
MTA2 (Homo sapiens, UniProt O94776)	HDAC2 (Homo sapiens, UniProt Q92769)	–	hits only	interaction screen	cross-linked
HSPA5 (Homo sapiens, UniProt P11021)	HYOU1 (Homo sapiens, UniProt Q9Y4L1)	–	hits only	interaction screen	cross-linked

Some of these lines once more (set 2):
target	remaining binding [%]
CDK14 (Homo sapiens, UniProt O94921)	100
PKN2 (Homo sapiens, UniProt Q16513)	100
Aurora kinase B (AURKB, Homo sapiens, UniProt Q96GD4)	93
CAMK1 (Homo sapiens, UniProt Q14012)	100
EGFR (Homo sapiens, UniProt P00533, L858R/T790M)	83
CAMK2D (Homo sapiens, UniProt Q13557)	100
